Measurements gathered from unrelated publications.
Parts stem from different laboratories: compare values within a part only.

Series 1
Target: Sal-like protein 4, full length isoform B (SALL4, Homo sapiens, UniProt Q9UJQ4-2, residues 1-616)
Technique: universal PBM
Molecule type: double-stranded DNA, one strand shown
Medium: in vitro
Concentration: not given
Setting: 8-mer, flanks averaged, mean of replicates
Direction: higher = stronger binding
`GGCGCCAA` gave an E-score of -0.135.
For `TAGTTCCA`, the E-score was 0.124.
With `AGTACACA` the E-score was 0.119.
The E-score of `AGCGGGAA` is reported as -0.079.
For `ACTTTCGA`, the E-score was 0.132.
`AGCCCAGC` gave an E-score of -0.362.
With `GGGATGCA` the E-score was -0.139.
`CGCTGGGA` gave an E-score of -0.284.
The E-score of `GTGCATGA` is reported as 0.0522.
For `GCGAATGA`, the E-score was 0.134.

Series 2
Target: Interferon regulatory factor 3, full length, phosphomimetic (IRF3, Homo sapiens, UniProt Q14653, residues 1-427, S386D/S396D/S398D/S402D/T404D/S405D)
Technique: protein-binding microarray
Molecule type: double-stranded DNA, one strand shown
Medium: in vitro
Concentration: 2540 nM top
Setting: 60-bp whole probe
With: salmon DNA 0.4 mg/ml
Reference: random background probes
Direction: higher = stronger binding
Shared flanks, not repeated: GCCTAGCAC … GTCTTGATTCGCTTGACGCTGCTG
Target sequence (chain): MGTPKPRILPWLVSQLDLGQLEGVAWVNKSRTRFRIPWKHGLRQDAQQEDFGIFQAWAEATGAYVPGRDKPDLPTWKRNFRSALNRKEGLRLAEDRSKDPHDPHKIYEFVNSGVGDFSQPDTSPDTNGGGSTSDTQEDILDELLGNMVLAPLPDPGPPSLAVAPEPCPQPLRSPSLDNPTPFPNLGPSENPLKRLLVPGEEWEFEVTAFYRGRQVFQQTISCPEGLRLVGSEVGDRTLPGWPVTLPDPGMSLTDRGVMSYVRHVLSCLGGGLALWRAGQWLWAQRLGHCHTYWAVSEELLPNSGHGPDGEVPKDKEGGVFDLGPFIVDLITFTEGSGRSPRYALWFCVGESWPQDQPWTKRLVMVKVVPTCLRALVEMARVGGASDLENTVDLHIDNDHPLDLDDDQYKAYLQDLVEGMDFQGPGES
Under “fitted relative affinity”, `TGAGGTATCGGTTTCGGTTAGTGCTAG` is recorded as 8.22 z-score.
For `GTATGGATGTGTTTTAAATAGTGCTAG`, “fitted relative affinity” read 0.174 z-score.
For `GATGATTTCAGTTCCGAGACGTGCTAG`, “fitted relative affinity” read 2.8 z-score.
`GACGGTTTCGGGTTTTGGGACGTGCTA`: “fitted relative affinity” 4.6 z-score.
`TATTCTCTACTTGTGTCTAGGTGCTAG` — result for “fitted relative affinity”: 1.41 z-score.
`TTAGGACTGGACTTTCGGTAAGTGCTA` — result for “fitted relative affinity”: 0.334 z-score.
Under “fitted relative affinity”, `TTAGATATCAGACTGGACTAGTGCTAG` is recorded as 0.0145 z-score.
For `TTAAATATCGGGTATCGATTAGTGCTA`, “fitted relative affinity” read 0.45 z-score.
`TCATATATGTGTATATAACTGTGCTAG`: “fitted relative affinity” 0.595 z-score.

Series 3
Target: TAR DNA-binding protein 43, full length, His tag (TARDBP, Homo sapiens, UniProt Q13148, residues 1-414)
Technique: RNA Bind-n-Seq
Molecule type: RNA
Medium: in vitro
Concentration: 20 nM
Setting: 6-mer, flanks averaged, single round
With: 150 mM KCl
Reference: input library
Direction: higher = stronger binding
`GGUGAA`: “6-mer enrichment (R)” 1.6.
`UAAGGC` — result for “6-mer enrichment (R)”: 0.804.
`GGUUUG` — result for “6-mer enrichment (R)”: 1.41.
Under “6-mer enrichment (R)”, `GCUGAG` is recorded as 1.5.
`AAUGUU`: “6-mer enrichment (R)” 0.703.
For `GAAGGA`, “6-mer enrichment (R)” read 1.51.
`UUGCAA` — result for “6-mer enrichment (R)”: 0.644.
`ACGCAU` — result for “6-mer enrichment (R)”: 0.671.
`GUUGCC`: “6-mer enrichment (R)” 0.804.
`AUCUAG`: “6-mer enrichment (R)” 0.609.

Further values, each from its own experiment
`PhoQ, residues 284 288 289 292 302 303 SCCLKL` has a fold induction of 4.04 (PhoP, residues 12 14 15 18 19 TQAIL (Escherichia coli, UniProt P23836); Sort-seq, item: YFP reporter; E. coli; PhoQ-PhoP variant library, with: 10 µM Mg2+; reference: high Mg2+ state, higher = stronger signaling).

Some of these lines once more (series 1):
With `GGGATGCA` the E-score was -0.139.
`CGCTGGGA` gave an E-score of -0.284.
The E-score of `GTGCATGA` is reported as 0.0522.
